Measured values of several laboratories.
Every numbered part comes from another study and shows a few of its results, in no order. Positions count from the first letter of the parent shown.

Set 1
Target: Histone acetyltransferase KAT6A, winged helix 1, GST fusion (KAT6A, Homo sapiens, UniProt Q92794, residues 1-85)
Method: protein binding microarray
Form: double-stranded DNA, one strand shown
Sample: in vitro
Concentration: not given
Setting: 8-mer, flanks averaged, mean of 2 arrays, mostly near background
Relative to: not given
Reading: higher = stronger binding
Construct (chain): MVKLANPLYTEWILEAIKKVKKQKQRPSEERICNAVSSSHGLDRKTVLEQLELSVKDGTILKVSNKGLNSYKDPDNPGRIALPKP
| Oligonucleotide | E-score |
| --- | --- |
| AACTGCAC | -0.174 |
| ATTGTGCG | 0.171 |
| CTCCTACA | -0.168 |
| CCATTTTA | 0.0559 |
| CCGATGAA | 0.0221 |
| CACATATG | -0.148 |
| AATATTAT | -0.08 |
| TACAAGTA | -0.274 |
| TGATGAAA | -0.241 |
| ATAATTCG | 0.0005 |
| GAAGGGTC | 0.0132 |
| CGCCACAC | 0.19 |
| AGTAGGAT | -0.128 |

Set 2
Target: CCND1, cyclin fold, Cln2 fusion (human)
Method: yeast growth competition, sequencing
Sample: yeast
Setting: weak parent motif
Relative to: not given
Reading: higher = stronger binding
Starting sequence: CDT1 docking peptide (human); PPARRRLRLSVDE; partner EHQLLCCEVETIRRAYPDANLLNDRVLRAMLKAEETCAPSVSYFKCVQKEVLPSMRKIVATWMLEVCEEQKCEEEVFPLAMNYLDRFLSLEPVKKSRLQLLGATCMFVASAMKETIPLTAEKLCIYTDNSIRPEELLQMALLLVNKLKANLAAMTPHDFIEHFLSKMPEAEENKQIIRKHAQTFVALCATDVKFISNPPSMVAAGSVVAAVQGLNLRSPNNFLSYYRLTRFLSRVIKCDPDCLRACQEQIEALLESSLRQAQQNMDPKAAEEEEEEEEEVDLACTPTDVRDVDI
| Substitution | normalised enrichment score |
| --- | --- |
| PPARRRLALSVDE [R8A] | 0.154 |
| PPARRALRLSVDE [R6A] | 0.667 |
| PPARKRLRFSVDE [R5K L9F] | 0.32 |
| PPARRRLRASVDE [L9A] | -0.202 |
| PAARRRLRLSVDE [P2A] | 0.0547 |
| PPARRRLRLSVAE [D12A] | 0.71 |
| PPAARRLRLSVDE [R4A] | 0.417 |

Set 3
Target: Sal-like protein 4, full length isoform B (SALL4, Homo sapiens, UniProt Q9UJQ4-2, residues 1-616)
Method: universal PBM
Form: double-stranded DNA, one strand shown
Sample: in vitro
Concentration: not given
Setting: 8-mer, flanks averaged, mean of replicates
Reading: higher = stronger binding
Target sequence (chain): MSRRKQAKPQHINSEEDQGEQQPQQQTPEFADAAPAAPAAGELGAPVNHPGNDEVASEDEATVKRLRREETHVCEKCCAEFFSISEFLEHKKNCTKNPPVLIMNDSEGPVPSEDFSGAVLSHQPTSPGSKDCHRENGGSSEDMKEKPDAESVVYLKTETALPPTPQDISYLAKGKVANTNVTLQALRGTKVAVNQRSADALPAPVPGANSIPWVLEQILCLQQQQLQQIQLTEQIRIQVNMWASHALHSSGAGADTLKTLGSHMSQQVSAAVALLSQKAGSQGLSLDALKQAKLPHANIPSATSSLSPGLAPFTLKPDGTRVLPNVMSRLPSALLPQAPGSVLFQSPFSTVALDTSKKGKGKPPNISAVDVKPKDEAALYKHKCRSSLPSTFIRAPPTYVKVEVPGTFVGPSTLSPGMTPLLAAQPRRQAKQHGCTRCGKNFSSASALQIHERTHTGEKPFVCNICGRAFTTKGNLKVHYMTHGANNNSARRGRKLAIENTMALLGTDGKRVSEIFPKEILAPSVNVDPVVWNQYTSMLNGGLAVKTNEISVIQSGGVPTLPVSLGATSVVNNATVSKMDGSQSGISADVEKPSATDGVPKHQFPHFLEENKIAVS
| Oligonucleotide | E-score |
| --- | --- |
| CAGATCAG | -0.0102 |
| AAATAGAA | 0.179 |
| ACAATAGG | 0.169 |
| ACTGCGCT | 0.0253 |
| GATCCACC | -0.178 |
| ATTGCAAC | 0.0202 |
| TAACCAAA | 0.165 |
| TCTCCGCA | -0.178 |
| CATCGGGC | -0.292 |
| CCTCCCTC | -0.164 |
| CTGGCAGA | -0.125 |

Other studies, line by line
| Molecule | target | assay | test system | conditions | how to read | endpoint | value |
| --- | --- | --- | --- | --- | --- | --- | --- |
| PhoQ, residues 284 288 289 292 302 303 GANMMA | PhoP, residues 12 14 15 18 19 NHFRA (Escherichia coli, UniProt P23836) | Sort-seq, item: YFP reporter | E. coli | PhoQ-PhoP variant library, with: 10 µM Mg2+ | relative to: high Mg2+ state, higher = stronger signaling | fold induction | 1.48 |

For quick reference, copied from above (set 1):
| Oligonucleotide | E-score |
| --- | --- |
| AATATTAT | -0.08 |
| CCATTTTA | 0.0559 |
